# Literature values that unrelated publications cite.
# Each line is one published result; not all experiments were run side by side.
# Chain of UniProt Q8WXR4 (whole entry, looked up): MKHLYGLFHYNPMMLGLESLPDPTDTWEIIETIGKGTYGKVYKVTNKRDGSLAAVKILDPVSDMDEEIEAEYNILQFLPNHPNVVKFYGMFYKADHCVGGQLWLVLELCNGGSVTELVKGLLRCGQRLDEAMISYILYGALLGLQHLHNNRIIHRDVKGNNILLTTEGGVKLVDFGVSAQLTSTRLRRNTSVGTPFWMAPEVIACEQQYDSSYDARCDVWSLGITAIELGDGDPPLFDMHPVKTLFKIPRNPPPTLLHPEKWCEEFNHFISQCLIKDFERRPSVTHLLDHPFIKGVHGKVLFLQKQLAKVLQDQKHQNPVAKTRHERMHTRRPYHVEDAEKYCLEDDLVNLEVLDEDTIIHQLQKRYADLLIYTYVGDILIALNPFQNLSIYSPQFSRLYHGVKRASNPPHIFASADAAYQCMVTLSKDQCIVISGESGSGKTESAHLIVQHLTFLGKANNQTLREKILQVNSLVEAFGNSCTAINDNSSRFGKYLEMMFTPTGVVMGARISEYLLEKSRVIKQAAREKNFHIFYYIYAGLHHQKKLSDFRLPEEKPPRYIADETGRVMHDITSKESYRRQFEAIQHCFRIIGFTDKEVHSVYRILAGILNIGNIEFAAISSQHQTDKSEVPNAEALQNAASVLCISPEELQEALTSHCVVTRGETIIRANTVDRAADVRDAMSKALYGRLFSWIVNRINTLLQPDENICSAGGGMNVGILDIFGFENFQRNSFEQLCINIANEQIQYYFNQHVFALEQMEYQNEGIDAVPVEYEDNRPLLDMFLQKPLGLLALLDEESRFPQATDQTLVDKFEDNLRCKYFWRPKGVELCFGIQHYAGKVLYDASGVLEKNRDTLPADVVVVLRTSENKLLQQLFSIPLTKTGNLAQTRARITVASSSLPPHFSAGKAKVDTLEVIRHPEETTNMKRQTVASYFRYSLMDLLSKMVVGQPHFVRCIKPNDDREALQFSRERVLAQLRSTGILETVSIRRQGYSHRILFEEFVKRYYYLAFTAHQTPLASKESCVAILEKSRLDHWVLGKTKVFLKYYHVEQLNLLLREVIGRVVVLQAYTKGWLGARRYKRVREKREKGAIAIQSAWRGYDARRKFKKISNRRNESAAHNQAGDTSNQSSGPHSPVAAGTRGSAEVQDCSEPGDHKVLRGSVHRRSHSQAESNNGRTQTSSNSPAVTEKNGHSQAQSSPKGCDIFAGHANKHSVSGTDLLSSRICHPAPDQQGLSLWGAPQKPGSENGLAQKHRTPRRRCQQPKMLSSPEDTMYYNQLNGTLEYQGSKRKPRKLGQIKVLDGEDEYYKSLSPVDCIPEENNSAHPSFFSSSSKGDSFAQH
Compound,tested on,assay,test system,conditions,scale,quantity,value
COCCc1ccc(OCC(O)CNC(C)C)cc1 (stereo not shown),CYP2D6,,,,,CLint,3.61 µL/min/pmol
FC(F)(F)C(F)(F)C(F)(F)C(F)(F)C(F)(F)C(F)(F)C(F)(F)C(F)(F)Br,CYP2D6,inhibitor,,Tox21 screening,,IC50,inactive
N#CCNC(=O)c1ccc(-c2ccnc(Nc3ccc(N4CCOCC4=O)cc3)n2)cc1,CYP2D6,"enzyme activity, inhibitor",,concentration not given,,inhibition,no inhibition
CC1(C)S[C@@H]2[C@H](NC(=O)[C@H](N)c3ccccc3)C(=O)N2[C@H]1C(=O)O,Acinetobacter baumannii,,clinical isolate RKI-No_16/15,,,MIC,> 16 µg/mL
COC(=O)N[C@H](C(=O)N1CCC[C@H]1c1nc(-c2ccc3c(c2)O[C@@H](c2ccccc2)n2c-3cc3cc(-c4c[nH]c([C@@H]5CCCN5C(=O)[C@@H](NC(=O)OC)C(C)C)n4)ccc32)c[nH]1)C(C)C,CYP2D6,inhibitor,human liver microsomes,,,IC50,> 100 µM
N=C(N)N1CCc2ccccc2C1,CYP2D6,substrate,,,,Km,5.6 µM
FC1(F)C(F)(F)C(F)(F)C2(F)C(F)(F)C(F)(F)C(F)(F)C(F)(F)C2(F)C1(F)F (stereo not shown),CYP2D6,inhibitor,,Tox21 screening,,IC50,inactive
C=C[C@@H]1C[C@]1(NC(=O)[C@@H]1C[C@@H]2CN1C(=O)[C@H](C(C)(C)C)NC(=O)O[C@@H]1C[C@H]1CCCCCc1nc3ccc(OC)cc3nc1O2)C(=O)NS(=O)(=O)C1CC1,CYP2D6,inhibitor,human liver microsomes,,,IC50,> 100 µM
CNC(C)C1CCC(N)C(OC2C(N)CC(N)C(OC3OCC(C)(O)C(NC)C3O)C2O)O1 (stereo not shown),Acinetobacter baumannii,,clinical isolate RKI-No_16/15,,,MIC,> 8 µg/mL
CC(=O)Nc1ccc(O)cc1,CYP2D6,substrate,,,,Vmax,0.432 pmol/min/pmol
Fc1c(F)c(F)c(Br)c(F)c1F,CYP2D6,,,concentration not given,,activity,inactive
Nc1cc(C(F)(F)F)c(-c2nc(N3CCOCC3)nc(N3CCOCC3)n2)cn1,"Myosin-IIIb (MYO3B, Homo sapiens, UniProt Q8WXR4)",enzyme activity,,10 µM,reference: untreated,remaining activity,100%
CNCc1cn(S(=O)(=O)c2cccc(F)c2)c(-c2ccc(F)cc2F)c1OC,CYP2D6,"enzyme activity, inhibitor",,,,IC50,33.4 µM
